Assay results of several laboratories.
Lines come from different studies, so protocols differ. Numbers after ± are the reported error.
B1: human DDX3Y; sequence looked up; chain SHVVVKNDPELDQQLANLDLNSEKQSGGASTASKGRYIPPHLRNREASKGFHDKDSSGWSCSKDKDAYSSFGSRDSRGKPGYFSERGSGSRGRFDDRGRSDYDGIGNRERPGFGRFERSGHSRWCDKSVEDDWSKPLPPSERLEQELFSGGNTGINFEKYDDIPVEATGSNCPPHIENFSDIDMGEIIMGNIELTRYTRPTPVQKHAIPIIKGKRDLMACAQTGSGKTAAFLLPILSQIYTDGPGEALKAVKENGRYGRRKQYPISLVLAPTRELAVQIYEEARKFSYRSRVRPCVVYGGADIGQQIRDLERGCHLLVATPGRLVDMMERGKIGLDFCKYLVLDEADRMLDMGFEPQIRRIVEQDTMPPKGVRHTMMFSATFPKEIQMLARDFLDEYIFLAVGRVGSTSENITQKVVWVEDLDKRSFLLDILGATGSDSLTLVFVETKKGADSLEDFLYHEGYACTSIHGDRSQRDREEALHQFRSGKSPILVATAVAARGLDISNVRHVINFDLPSDIEEYVHRIGRTGRVGNLGLATSFFNEKNMNITKDLLDLLVEAKQEVPSWLENMAYEHHYKGGSRGRSKSNRFSGGFGARDYRQSSGSSSSGFGASRGSSSRSGGGGYGNSRGFGGGGYGGFYNSDGYGGNYNSQGVDWWGN
B2: SRS2 1107-1174 Q1149E (Saccharomyces cerevisiae, UniProt P12954); N-terminal cysteine BODIPY-FL; chain CHNPDDTTVDNRPIISNAKFLADAAMKKTQKFSKKVKNEPASSEMDIFSQLSRAKKKSKLNNGEIIVID
B3: Creb1 bZIP 270-341 C300S/C310S/C337S (Rattus norvegicus, UniProt P15337-1); sequence looked up; chain SSPALPTQPAEEAARKREVRLMKNREAARESRRKKKEYVKSLENRVAVLENQNKTLIEELKALKDLYSHKSD
B4: CDC48A 1-190 (Arabidopsis thaliana, UniProt P54609); chain MSTPAESSDSKSKKDFSTAILERKKSPNRLVVDEAINDDNSVVSLHPATMEKLQLFRGDTILIKGKKRKDTVCIALADETCEEPKIRMNKVVRSNLRVRLGDVISVHQCPDVKYGKRVHILPVDDTVEGVTGNLFDAYLKPYFLEAYRPVRKGDLFLVRGGMRSVEFKVIETDPAEYCVVAPDTEIFCEG
B5: ATG9 1-255 (Saccharomyces cerevisiae, UniProt Q12142); sequence looked up; chain MERDEYQLPNSHGKNTFLSRIFGLQSDEVNPSLNSQEMSNFPLPDIERGSSLLHSTNDSREDVDENDLRVPESDQGTSTEEEDEVDEEQVQAYAPQISDGLDGDHQLNSVTSKENVLETEKSNLERLVEGSTDDSVPKVGQLSSEEEEDNEFINNDGFDDDTPLFQKSKIHEFSSKKSNTIEDGKRPLFFRHILQNNRPQRDTQKLFTSSNAIHHDKDKSANNGPRNINGNQKHGTKYFGSATQPRFTGSPLNNT
B6: RSPO4 32-137 Q65R (Homo sapiens, UniProt Q2I0M5); chain GGNCTGCIICSEENGCSTCQQRLFLFIRREGIRRYGKCLHDCPPGYFGIRGQEVNRCKKCGATCESCFSQDFCIRCKRQFYLYKGKCLPTCPPGTLAHQNTRECQGGGGGSGGGGSGGGGS
B7: TNFSF4 51-183 (Homo sapiens, UniProt P23510); sequence looked up; chain QVSHRYPRIQSIKVQFTEYKKEKGFILTSQKEDEIMKVQNNSVIINCDGFYLISLKGYFSQEVNISLHYQKDEEPLFQLKKVRSVNSLMVASLTYKDKVYLNVTTDNTSLDDFHVNGGELILIHQNPGEFCVL
B8: BIK (Homo sapiens, UniProt Q13323); chain MSEVRPLSRDILMETLLYEQLLEPPTMEVLGMTDSEEDLDPMEDFDSLECMEGSDALALRLACIGDEMDVSLRAPRLAQLSEVAMHSLGLAFIYDQTEDIRDVLRSFMDGFTTLKENIMRFWRSPNPGSWVSCEQVLLALLLLLALLLPLLSGGLHLLLK
B9: UBQLN2 450-624 S624C (UniProt Q9UHD9); Alexa Fluor 488 at C624; sequence looked up; chain RAMQALMQIQQGLQTLATEAPGLIPSFTPGVGVGVLGTAIGPVGPVTPIGPIGPIVPFTPIGPIGPIGPTGPAAPPGSTGSGGPTGPTVSSAAPSETTSPTSESGPNQQFIQQMVQALAGANAPQLPNPEVRFQQQLEQLNAMGFLNREANLQALIATGGDINAAIERLLGSQPC
B10: ADRM1 265-388 (Homo sapiens, UniProt Q16186); chain SDLQSILATMNVPAGPAGGQQVDLASVLTPEIMAPILANADVQERLLPYLPSGESLPQTADEIQNTLTSPQFQQALGMFSAALASGQLGPLMCQFGLPAEAVEAANKGDVEAFAKAMQNNAKPE
B11: coatomer subunit beta', human; sequence looked up; chain PLRLDIKRKLTARSDRVKSVDLHPTEPWMLASLYNGSVCVWNHETQTLVKTFEVCDLPVRAAKFVARKNWVVTGADDMQIRVFNYNTLERVHMFEAHSDYIRCIAVHPTQPFILTSSDDMLIKLWDWDKKWSCSQVFEGHTHYVMQIVINPKDNNQFASASLDRTIKVWQLGSSSPNFTLEGHEKGVNCIDYYSGGDKPYLISGADDRLVKIWDYQNKTCVQTLEGHAQNVSCASFHPELPIIITGSEDGTVRIWHSSTYRLESTLNYGMERVWCVASLRGSNNVALGYDEGSIIVKLGREEPAMSMDANGKIIWAKHSEVQQANLKAMGDAEIKDGERLPLAVKDMGSCEIYPQTIQHNPNGRFVVVCGDGEYIIYTAMALRNKSFGSAQEFAWAHDSSEYAIRESNSIVKIFKNFKEKKSFKPDFGAESIYGGFLLGVRSVNGLAFYDWDNTELIRRIEIQPKHIFWSDSGELVCIATEESFFILKYLSEKVLAAQETHEGVTEDGIEDAFEVLGEIQEIVKTGLWVGDCFIYTSSVNRLNYYVGGEIVTIAHLDRTMYLLGYIPKDNRLYLGDKELNIISYSLLVSVLEYQTAVMRRDFSMADKVLPTIPKEQRTRVAHFLEKQGFKQQALTVSTDPEHRFELALQLGELKIAYQLAVEAESEQKWKQLAELAISKCQFGLAQECLHHAQDYGGLLLLATASGNANMVNKLAEGAERDGKNNVAFMSYFLQGKVDACLELLIRTGRLPEAAFLARTYLPSQVSRVVKLWRENLSKVNQKAAESLADPTEYENLFPGLKEAFVVEEWVKETHADLWPAKQYPLVTPNEERNVMEEGKDFQPSRSTAQQELDGKPASPTPVIVASHTANKEEKSLLELEVDLDNLELEDIDTTDINLDEDILDD
B12: IL18 37-193 N50C/C74S/C104S/L174C (Homo sapiens, UniProt Q14116); chain YFGKLESKLSVIRCLNDQVLFIDQGNRPLFEDMTDSDSRDNAPRTIFIISMYKDSQPRGMAVTISVKSEKISTLSCENKIISFKEMNPPDNIKDTKSDIIFFQRSVPGHDNKMQFESSSYEGYFLACEKERDLFKLICKKEDELGDRSIMFTVQNED
B13: spdl-1 C-terminal 362-479 (Caenorhabditis elegans, UniProt Q17695); sequence looked up; chain PVVNKDFEHPLLAAPLKTLNNGRPSFFIKPKNVEPMPQLGHSLSSIAVTPQKPAAKFTTRSSIKDDTSEWAERRMKAQAEKKLATPTPRYNYIKLSEPVPKFKPAVLQMPSTSETKEN
Sequence of UniProt Q5BJF2 (whole entry, looked up): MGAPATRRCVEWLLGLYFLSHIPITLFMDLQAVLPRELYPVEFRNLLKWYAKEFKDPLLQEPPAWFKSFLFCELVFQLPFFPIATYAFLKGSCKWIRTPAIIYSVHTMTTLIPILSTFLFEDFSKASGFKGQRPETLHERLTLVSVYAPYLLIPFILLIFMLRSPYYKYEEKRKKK
Sequence of UniProt Q95XP9 (whole entry, looked up): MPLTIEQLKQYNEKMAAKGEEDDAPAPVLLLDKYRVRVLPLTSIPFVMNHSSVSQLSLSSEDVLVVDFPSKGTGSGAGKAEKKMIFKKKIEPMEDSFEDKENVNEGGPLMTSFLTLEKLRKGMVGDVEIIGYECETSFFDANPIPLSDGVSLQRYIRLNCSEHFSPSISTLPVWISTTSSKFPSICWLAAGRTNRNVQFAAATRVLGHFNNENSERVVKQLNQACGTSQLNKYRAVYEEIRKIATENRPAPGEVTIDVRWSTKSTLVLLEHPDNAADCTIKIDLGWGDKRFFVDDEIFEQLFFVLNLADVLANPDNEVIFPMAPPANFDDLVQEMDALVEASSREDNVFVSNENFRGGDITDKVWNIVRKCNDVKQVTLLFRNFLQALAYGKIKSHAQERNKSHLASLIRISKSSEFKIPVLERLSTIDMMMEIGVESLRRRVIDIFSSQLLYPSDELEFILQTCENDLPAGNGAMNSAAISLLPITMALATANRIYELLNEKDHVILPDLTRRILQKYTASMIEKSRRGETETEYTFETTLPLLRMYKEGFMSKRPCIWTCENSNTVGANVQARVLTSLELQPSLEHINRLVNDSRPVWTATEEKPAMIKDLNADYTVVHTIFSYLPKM
Sequence of UniProt Q71LX4 (whole entry, looked up): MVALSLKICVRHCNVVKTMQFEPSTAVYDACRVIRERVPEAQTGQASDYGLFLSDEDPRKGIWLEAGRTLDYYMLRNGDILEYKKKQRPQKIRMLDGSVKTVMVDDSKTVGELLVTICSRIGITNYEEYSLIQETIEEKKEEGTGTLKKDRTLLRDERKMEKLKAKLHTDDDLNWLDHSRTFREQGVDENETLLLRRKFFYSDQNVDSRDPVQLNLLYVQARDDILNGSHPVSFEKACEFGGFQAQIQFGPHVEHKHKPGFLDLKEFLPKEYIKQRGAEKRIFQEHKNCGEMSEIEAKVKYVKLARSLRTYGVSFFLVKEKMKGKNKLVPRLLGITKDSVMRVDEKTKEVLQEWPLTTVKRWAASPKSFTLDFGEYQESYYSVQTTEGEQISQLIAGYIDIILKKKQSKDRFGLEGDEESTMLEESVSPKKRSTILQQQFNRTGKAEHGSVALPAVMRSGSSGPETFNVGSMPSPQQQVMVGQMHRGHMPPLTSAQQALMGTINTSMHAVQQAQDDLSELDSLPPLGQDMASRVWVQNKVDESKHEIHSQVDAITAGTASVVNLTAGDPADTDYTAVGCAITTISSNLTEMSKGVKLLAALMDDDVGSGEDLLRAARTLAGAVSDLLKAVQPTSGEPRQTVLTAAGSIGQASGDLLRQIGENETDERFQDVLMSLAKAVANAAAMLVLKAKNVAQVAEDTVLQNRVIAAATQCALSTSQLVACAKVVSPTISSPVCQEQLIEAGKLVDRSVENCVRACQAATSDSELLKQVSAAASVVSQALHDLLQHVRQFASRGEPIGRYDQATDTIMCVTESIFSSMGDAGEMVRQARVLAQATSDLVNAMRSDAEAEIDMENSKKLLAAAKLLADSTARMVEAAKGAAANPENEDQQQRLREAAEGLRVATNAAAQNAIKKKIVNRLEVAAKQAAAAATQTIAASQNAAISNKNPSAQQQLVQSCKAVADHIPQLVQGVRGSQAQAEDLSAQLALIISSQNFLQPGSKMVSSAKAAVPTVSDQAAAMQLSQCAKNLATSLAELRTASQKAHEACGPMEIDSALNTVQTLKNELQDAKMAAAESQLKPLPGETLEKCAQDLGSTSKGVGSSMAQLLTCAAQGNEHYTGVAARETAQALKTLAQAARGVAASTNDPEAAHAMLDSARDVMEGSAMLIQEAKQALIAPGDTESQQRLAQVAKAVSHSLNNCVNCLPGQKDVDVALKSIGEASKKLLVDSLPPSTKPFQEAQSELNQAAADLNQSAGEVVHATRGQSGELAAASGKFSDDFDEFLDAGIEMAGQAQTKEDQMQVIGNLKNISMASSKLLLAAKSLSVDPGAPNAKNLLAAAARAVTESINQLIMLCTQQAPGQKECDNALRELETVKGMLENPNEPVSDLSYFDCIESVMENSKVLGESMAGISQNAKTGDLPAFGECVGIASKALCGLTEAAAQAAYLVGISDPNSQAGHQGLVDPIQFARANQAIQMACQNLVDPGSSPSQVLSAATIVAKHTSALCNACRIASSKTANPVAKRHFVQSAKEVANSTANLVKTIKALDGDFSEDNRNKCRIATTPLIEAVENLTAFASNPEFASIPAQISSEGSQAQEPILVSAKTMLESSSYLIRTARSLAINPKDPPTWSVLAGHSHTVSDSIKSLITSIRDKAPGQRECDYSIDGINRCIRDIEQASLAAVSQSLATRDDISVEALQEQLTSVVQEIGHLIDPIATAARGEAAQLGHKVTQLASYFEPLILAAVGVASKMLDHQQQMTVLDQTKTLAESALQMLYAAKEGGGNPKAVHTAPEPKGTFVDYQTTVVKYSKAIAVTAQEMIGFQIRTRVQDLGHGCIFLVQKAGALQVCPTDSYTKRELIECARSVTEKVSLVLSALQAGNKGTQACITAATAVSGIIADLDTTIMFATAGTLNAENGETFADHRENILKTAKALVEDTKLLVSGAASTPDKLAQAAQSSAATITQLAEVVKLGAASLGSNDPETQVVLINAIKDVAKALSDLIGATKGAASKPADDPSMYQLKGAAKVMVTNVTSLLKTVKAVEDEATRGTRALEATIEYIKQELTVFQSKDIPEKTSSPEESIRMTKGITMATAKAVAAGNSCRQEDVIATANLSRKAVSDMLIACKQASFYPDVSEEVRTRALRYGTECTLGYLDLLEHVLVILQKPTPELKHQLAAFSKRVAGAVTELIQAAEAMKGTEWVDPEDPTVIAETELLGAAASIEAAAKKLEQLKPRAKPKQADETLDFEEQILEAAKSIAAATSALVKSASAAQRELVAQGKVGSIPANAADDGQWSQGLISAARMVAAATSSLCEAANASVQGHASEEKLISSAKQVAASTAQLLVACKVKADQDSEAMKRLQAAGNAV
Sequence of UniProt Q94JZ8 (whole entry, looked up): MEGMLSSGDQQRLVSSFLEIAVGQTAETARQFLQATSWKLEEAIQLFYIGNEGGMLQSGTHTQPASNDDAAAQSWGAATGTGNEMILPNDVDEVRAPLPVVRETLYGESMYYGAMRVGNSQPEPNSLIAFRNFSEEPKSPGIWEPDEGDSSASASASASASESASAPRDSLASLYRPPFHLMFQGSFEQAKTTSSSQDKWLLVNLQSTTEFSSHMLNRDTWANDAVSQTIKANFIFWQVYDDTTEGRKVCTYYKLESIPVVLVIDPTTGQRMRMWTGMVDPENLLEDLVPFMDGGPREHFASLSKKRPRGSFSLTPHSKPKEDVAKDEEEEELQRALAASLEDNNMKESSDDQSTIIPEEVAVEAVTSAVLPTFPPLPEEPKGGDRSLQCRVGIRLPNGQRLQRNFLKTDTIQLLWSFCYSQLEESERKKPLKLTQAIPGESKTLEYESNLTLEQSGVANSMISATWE
Sequence of UniProt Q39011 (whole entry, looked up): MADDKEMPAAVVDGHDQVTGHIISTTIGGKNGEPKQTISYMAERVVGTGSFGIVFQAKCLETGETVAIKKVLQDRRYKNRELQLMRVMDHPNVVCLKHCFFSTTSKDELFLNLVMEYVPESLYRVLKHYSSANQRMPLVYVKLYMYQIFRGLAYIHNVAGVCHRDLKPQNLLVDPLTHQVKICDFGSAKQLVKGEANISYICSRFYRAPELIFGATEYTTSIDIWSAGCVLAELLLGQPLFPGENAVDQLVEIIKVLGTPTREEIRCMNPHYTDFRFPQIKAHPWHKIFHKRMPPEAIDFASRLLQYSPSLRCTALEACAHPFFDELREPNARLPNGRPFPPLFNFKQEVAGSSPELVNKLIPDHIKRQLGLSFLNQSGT
Sequence of UniProt Q23985 (whole entry, looked up): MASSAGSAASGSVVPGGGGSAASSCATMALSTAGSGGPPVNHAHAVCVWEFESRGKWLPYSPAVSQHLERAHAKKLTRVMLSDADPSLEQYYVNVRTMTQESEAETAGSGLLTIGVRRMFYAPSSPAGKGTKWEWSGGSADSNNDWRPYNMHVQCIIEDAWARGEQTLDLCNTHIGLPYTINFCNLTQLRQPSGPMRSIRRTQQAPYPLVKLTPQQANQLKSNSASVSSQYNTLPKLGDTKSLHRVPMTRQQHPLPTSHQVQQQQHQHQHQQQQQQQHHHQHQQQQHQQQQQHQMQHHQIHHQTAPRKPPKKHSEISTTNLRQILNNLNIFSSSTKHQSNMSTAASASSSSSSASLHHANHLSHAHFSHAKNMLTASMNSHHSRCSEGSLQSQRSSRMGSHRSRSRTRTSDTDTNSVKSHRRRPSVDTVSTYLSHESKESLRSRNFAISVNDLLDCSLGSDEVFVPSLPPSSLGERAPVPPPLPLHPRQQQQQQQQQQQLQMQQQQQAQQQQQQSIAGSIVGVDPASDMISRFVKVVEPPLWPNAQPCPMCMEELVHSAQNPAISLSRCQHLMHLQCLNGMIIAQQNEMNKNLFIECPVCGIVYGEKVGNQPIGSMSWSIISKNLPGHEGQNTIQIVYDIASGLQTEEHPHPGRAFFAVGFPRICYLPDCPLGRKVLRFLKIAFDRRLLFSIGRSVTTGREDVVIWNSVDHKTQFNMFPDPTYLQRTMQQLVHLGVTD
Sequence of UniProt P70345 (whole entry, looked up): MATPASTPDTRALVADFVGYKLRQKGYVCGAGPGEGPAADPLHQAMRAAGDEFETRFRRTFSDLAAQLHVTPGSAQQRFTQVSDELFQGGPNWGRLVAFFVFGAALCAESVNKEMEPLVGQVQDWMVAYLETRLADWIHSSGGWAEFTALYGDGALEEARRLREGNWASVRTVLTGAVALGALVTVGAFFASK

B1 (human DDX3Y)  log2 fold change (PP6C (human); co-immunoprecipitation, IP-MS; CYB5R4 knockout cells; concentration not given; relative to: CYB5R4 knockout over parental): 0.0268
PF4/KKO tetramer  Kd (GP6 monomer (UniProt Q9HCN6); SPR): 30 nM
YLPTITGVGHLWHPLC (engineered peptide)  Kd (VPS29/VPS35 full length heterodimer (Homo sapiens); ITC; peptide): 763 ± 12 nM
PARRSEELVAEAHNLCTLLENAIQDTVREQDQSFTALDWSWLQTE (IKBKB 701-745 K703R/K704R (UniProt O14920); N-terminal FITC; sequence looked up)  Kd (IKBKG 44-113 E110V/R106E/E78R/R75V/L55R/T50E; fluorescence polarisation; peptide): 532 nM
B2 (SRS2 1107-1174 Q1149E)  Kd (POL30 1-258 K127G (Saccharomyces cerevisiae, UniProt P15873); fluorescence polarisation; apparent): 510 nM
Notch ankyrin domain R107A (Drosophila)  Kd (dx (Drosophila melanogaster, UniProt Q23985); AUC): 12900 nM
B3  Kd (Creb1 bZIP-LZ 270-341 C300S (Rattus norvegicus, UniProt P15337-1); smFRET): 33 nM
B4 (CDC48A 1-190)  Kd (PUX7 171-468 (Arabidopsis thaliana, UniProt Q94JZ8); BLI; 25 °C): 9.1 ± 0.2 nM
B5 (ATG9 1-255)  Kd (ATG23 Y16E (UniProt Q06671); BLI): 3200 nM
B6 (RSPO4 32-137 Q65R)  Kd (LGR4 (Homo sapiens, UniProt Q9BXB1); whole-cell binding saturation; Fc fusion, HEK293T): 0.5 nM
BIN2 (Arabidopsis thaliana, UniProt Q39011)  Kd (PCK1 (Arabidopsis thaliana, UniProt Q9T074); BLI; without ATP): 180 nM
CACNA1C fragment (Oryctolagus cuniculus) (sequence not shown)  Kd (Prkaca (Mus musculus, UniProt P05132); ITC; pH 7.8, 25 °C): 1400 nM
B7 (TNFSF4 51-183)  Kd (TNFRSF4 29-170 D124A (Homo sapiens, UniProt P43489); SPR): 72000 nM
B8 (BIK)  Kd (Bcl2l2 (Mus musculus, UniProt P70345); FRET or BRET; not purified): 9000 nM
colistin  MIC (Enterobacter cloacae; clinical isolate RKI 37/14): ≤ 0.5 µg/mL
Homer EVH1 domain (Capsaspora owczarzaki)  Kd (DVL3 peptide (Homo sapiens); BLI): > 150000 nM
KLLMIIHDRREFAKFEKEKMNAKWDTQENPIYKEPINNFKNPNYGRKAGL (ITGB1 752-801 S785E (Homo sapiens, UniProt P05556-5); sequence looked up)  Kd (Tln2 312-408 (Mus musculus, UniProt Q71LX4); NMR titration): 71000 nM
B9 (UBQLN2 450-624 S624C)  Kd (ubiquitin M1-linked tetramer (UniProt P0CG48); fluorescence polarisation): 5110 nM
B10 (ADRM1 265-388)  Kd (UCHL5 E283A/M148A/F149A (Homo sapiens); ITC): 17 nM
B11 (coatomer subunit beta', human)  log2 fold change (PP6C (human); co-immunoprecipitation, IP-MS; CYB5R4 knockout cells; concentration not given; relative to: CYB5R4 knockout over parental): -1.37
GRIN2A fragment, pS1459 (sequence not shown)  Kd (SNX27 fragment (Rattus norvegicus); ITC): 13700 nM
KDR (Homo sapiens, UniProt P35968)  Kd (ramucirumab IgG, PBS-stressed 28 d, Fc heavy chain Asn deamidation; SPR): 0.32 nM
B12  Kd (IL18BP (Homo sapiens, UniProt O95998); SPR): 0.014 nM
B13 (spdl-1 C-terminal 362-479)  Kd (zwl-1 (Caenorhabditis elegans, UniProt Q95XP9); MST): 53300 ± 16200 nM
EPHA2 fragment, auto-phosphorylated (Homo sapiens)  Kd (EFNA5 (Homo sapiens, UniProt P52803); BLI; apparent): 360 nM
SHREFPFYGDYGS (HTN1 residues 20-32)  Kd (TMEM97 (Homo sapiens, UniProt Q5BJF2); SPR; peptide): > 50000 nM

Excerpt of the above:
B9 (UBQLN2 450-624 S624C)  Kd (ubiquitin M1-linked tetramer (UniProt P0CG48); fluorescence polarisation): 5110 nM
B10 (ADRM1 265-388)  Kd (UCHL5 E283A/M148A/F149A (Homo sapiens); ITC): 17 nM
